Measurements pooled from the literature.
Each line is one published result; not all experiments were run side by side.

C=C(C)C12OC3(c4ccccc4)OC1C1C(O)C(Br)(CO)C(O)C4(O)C(=O)C(C)=CC4C1(O3)C(C)C2OC(=O)c1ccccc1 (centres unmarked)  LD50 (Kunming mouse; intraperitoneal, single dose): > 100 mg/kg
Cc1nccc2c3ccccc3n(Cc3cccnc3)c12  LD50 (Kunming mouse; oral, single dose): 1120 to 2020 mg/kg
C=CC(=O)Nc1cccc(Cn2ncc3cnc(Nc4cnn(CCOC)c4)nc32)c1  LD50 (CD-1 mouse; oral, 2 g/kg, single dose): > 2000 mg/kg
Cc1cc(/C=C/C#N)cc(C)c1Oc1nc(NC2CCN(Cc3ccc(P(C)(C)=O)cc3)CC2)nc2ccsc12  LD50 (Kunming mouse; oral, 2000 mg/kg): > 2000 mg/kg
CC(=O)CC(=O)C1C[C@H](O)CCC1=O (some centres unmarked)  LD50 (mouse; oral, single dose): 2710 mg/kg
Cc1cc(/C=C/C#N)cc(C)c1Oc1nc(NC2CCN(Cc3ccc(S(C)(=O)=O)cc3)CC2)nc2ncccc12  LD50 (Kunming mouse; oral, 800 mg/kg, single dose): > 800 mg/kg
CCCCn1c2ccccc2c2ccnc(-c3ccc(OC)cc3)c21  LD50 (Kunming mouse; oral, single dose): 870 to 1430 mg/kg
CC[C@H](C)[C@H](NC(=O)[C@H](C)NC(=O)[C@H](CCCCN)NC(=O)[C@H](CC(C)C)NC(=O)[C@@H](N)Cc1ccccc1)C(=O)N[C@@H](CCCCN)C(=O)N[C@@H](CCCCN)C(=O)N[C@@H](Cc1ccccc1)C(=O)NCC(=O)N[C@@H](CCCCN)C(=O)N[C@@H](CCC(=O)O)C(=O)N[C@@H](Cc1ccccc1)C(=O)N[C@@H](CCCCN)C(=O)N[C@@H](CCCCN)C(=O)N[C@H](C(=O)NCC(=O)N[C@@H](C)C(=O)N[C@@H](CCCCN)C(=O)N[C@@H](CC(C)C)C(=O)N[C@@H](CCCCN)C(=O)O)[C@@H](C)CC  LD50 (BALB/c mouse; intraperitoneal, single dose): 150 mg/kg

Excerpt of the above:
Cc1cc(/C=C/C#N)cc(C)c1Oc1nc(NC2CCN(Cc3ccc(P(C)(C)=O)cc3)CC2)nc2ccsc12  LD50 (Kunming mouse; oral, 2000 mg/kg): > 2000 mg/kg
